Published values from different studies.
Parts stem from different laboratories: compare values within a part only.
Chain of UniProt Q86UE8 (whole entry, looked up): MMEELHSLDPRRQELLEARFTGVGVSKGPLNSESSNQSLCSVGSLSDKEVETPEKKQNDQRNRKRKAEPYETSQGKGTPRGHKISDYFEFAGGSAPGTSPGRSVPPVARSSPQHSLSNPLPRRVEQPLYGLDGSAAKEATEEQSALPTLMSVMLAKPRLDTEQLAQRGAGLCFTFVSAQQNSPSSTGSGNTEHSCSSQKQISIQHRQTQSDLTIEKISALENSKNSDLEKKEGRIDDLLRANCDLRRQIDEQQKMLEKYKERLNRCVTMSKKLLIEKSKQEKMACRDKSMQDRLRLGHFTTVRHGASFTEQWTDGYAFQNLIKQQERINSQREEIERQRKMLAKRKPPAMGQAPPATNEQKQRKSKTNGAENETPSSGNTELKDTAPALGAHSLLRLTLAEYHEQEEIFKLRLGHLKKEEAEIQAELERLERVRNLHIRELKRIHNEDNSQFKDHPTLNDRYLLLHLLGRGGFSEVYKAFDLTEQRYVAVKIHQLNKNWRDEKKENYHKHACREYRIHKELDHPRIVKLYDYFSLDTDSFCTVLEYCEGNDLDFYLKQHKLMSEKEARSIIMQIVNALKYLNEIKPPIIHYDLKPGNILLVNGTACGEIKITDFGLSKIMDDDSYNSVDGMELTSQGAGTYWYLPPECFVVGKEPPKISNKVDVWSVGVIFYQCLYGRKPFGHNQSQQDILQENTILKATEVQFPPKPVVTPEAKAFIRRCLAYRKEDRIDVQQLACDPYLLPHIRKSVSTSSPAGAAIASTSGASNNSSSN
Chain of UniProt O14936 (whole entry, looked up): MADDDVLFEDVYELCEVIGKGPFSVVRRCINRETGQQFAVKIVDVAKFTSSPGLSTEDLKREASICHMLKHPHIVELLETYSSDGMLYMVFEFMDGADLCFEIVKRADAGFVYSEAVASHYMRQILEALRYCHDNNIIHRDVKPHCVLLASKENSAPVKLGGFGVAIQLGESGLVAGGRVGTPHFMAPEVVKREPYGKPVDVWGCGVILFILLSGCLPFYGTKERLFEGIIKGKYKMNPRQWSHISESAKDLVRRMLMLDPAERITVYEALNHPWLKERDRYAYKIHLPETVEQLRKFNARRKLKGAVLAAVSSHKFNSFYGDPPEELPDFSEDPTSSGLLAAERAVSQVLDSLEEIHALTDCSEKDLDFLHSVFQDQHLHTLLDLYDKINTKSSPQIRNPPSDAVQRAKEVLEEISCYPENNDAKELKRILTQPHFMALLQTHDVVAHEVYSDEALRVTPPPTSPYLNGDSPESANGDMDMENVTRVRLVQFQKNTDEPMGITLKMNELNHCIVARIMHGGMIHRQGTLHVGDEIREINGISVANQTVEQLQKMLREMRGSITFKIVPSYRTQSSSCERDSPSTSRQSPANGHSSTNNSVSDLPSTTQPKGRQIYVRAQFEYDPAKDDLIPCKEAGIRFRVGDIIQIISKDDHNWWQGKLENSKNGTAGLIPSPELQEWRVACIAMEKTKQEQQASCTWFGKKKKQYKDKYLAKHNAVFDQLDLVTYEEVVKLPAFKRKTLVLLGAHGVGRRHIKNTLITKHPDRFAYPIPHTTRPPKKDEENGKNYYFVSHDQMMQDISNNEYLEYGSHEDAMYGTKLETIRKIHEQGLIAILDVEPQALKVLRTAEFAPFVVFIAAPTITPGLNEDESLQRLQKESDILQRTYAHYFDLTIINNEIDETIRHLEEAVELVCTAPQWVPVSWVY
Chain of UniProt P06493 (whole entry, looked up): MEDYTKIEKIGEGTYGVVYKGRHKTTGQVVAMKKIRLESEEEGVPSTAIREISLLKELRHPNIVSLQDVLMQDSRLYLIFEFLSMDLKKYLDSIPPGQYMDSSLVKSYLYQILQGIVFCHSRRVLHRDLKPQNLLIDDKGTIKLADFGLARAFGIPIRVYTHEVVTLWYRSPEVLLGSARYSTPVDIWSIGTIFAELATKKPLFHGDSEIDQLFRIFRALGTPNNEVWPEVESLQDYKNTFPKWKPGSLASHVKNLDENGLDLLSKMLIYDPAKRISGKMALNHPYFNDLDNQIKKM
Chain of UniProt Q96J92 (whole entry, looked up): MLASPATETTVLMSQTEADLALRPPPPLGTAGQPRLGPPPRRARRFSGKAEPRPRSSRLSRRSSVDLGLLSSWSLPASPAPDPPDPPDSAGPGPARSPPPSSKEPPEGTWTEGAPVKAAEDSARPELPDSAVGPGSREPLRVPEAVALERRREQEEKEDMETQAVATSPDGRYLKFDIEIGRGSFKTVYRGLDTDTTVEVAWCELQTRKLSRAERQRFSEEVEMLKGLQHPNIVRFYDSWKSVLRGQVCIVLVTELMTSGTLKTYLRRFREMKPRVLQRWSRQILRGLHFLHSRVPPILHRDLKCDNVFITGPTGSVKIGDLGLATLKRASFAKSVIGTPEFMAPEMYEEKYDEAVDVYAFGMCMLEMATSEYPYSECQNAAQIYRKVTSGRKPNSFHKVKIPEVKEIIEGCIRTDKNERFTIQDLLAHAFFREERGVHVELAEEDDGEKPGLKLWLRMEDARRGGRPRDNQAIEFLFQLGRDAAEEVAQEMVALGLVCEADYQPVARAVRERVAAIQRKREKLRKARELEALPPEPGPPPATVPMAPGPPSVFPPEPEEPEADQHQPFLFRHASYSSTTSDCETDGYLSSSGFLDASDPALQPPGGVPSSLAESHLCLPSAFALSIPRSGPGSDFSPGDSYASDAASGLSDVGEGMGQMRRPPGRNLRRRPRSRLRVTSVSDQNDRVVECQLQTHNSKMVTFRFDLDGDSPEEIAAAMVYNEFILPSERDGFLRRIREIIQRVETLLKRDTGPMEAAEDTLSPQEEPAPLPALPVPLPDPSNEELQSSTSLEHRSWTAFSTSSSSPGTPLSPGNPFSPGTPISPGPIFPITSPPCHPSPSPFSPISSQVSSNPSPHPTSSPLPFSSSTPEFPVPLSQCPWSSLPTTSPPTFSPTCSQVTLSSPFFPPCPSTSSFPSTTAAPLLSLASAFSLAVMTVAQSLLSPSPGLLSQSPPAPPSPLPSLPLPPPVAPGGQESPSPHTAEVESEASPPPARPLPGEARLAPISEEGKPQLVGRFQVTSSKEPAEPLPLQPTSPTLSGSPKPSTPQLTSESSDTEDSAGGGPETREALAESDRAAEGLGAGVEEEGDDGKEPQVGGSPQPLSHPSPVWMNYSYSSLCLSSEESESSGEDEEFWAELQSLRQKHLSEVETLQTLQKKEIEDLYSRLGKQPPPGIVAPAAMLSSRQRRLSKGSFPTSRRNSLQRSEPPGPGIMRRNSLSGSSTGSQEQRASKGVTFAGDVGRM
Chain of UniProt P35968 (whole entry, looked up): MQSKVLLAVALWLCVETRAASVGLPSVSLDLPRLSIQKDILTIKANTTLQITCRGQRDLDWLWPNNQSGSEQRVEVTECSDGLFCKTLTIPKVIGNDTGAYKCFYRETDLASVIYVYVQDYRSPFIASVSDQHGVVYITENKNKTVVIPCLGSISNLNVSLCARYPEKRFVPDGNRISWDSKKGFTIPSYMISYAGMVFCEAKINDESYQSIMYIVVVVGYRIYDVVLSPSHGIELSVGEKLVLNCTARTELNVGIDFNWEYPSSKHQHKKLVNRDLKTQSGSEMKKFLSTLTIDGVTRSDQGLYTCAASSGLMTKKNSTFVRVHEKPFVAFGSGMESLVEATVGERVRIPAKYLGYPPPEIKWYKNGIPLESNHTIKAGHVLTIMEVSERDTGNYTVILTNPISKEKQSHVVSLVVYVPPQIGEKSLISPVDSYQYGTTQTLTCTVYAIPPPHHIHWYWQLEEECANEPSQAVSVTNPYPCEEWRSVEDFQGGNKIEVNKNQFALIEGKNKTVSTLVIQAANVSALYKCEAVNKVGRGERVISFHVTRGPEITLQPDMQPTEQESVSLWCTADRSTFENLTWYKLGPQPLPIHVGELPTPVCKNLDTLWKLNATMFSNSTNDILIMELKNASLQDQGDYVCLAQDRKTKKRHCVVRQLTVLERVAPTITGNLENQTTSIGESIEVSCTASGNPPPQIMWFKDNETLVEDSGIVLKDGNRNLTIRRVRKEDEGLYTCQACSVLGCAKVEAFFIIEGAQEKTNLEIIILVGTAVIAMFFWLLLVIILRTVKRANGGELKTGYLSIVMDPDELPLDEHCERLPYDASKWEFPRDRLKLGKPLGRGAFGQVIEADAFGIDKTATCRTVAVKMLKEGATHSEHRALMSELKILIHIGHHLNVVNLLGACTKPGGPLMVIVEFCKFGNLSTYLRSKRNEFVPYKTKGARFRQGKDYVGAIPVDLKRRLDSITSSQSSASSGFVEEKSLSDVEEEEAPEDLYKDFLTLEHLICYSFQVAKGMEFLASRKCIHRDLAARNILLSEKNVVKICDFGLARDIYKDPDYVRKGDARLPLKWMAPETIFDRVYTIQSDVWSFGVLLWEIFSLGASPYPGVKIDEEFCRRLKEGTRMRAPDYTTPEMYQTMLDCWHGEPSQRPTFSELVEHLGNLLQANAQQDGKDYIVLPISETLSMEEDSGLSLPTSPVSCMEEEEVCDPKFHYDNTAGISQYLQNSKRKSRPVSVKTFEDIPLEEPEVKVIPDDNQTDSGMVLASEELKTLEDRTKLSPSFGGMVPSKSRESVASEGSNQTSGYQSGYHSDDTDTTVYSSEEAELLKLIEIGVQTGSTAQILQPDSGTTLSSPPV
Chain of UniProt Q6P2M8 (whole entry, looked up): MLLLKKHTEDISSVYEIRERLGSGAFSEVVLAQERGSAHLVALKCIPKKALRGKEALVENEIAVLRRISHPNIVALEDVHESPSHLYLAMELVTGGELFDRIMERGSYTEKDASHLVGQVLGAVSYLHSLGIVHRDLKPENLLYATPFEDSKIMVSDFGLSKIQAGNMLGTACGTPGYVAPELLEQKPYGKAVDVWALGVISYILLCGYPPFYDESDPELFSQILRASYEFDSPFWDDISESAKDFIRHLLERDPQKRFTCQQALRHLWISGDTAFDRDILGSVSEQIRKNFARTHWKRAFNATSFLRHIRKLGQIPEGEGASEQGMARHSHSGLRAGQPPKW

Block 1 — effect on: enzyme activity; mode: inhibitor; tested at: 0.5 µM; relative to: control; quantity: remaining activity
SMILES: Cc1cn(-c2cc(NC(=O)c3ccc(C)c(Nc4nccc(-c5cccnc5)n4)c3)cc(C(F)(F)F)c2)cn1
AKT2 (Homo sapiens, UniProt P31751): 103%
RPS6KA4 (Homo sapiens, UniProt O75676): 103%
CDC42BPB (Homo sapiens, UniProt Q9Y5S2): 99.6%
MARK4 (Homo sapiens, UniProt Q96L34): 102%
Cyclin-dependent kinase 1, with cyclin A (CDK1, Homo sapiens, UniProt P06493): 99.7%
CLK4 (Homo sapiens, UniProt Q9HAZ1): 45.5%
PLK3 (Homo sapiens, UniProt Q9H4B4): 105%
NEK3 (Homo sapiens, UniProt P51956): 95.9%
PNCK (Homo sapiens, UniProt Q6P2M8): 101%
DDR2 (Homo sapiens, UniProt Q16832): 1.77%
PRKG2 (Homo sapiens, UniProt Q13237): 109%
CLK3 (Homo sapiens, UniProt P49761): 111%
MAP2K1 (Homo sapiens, UniProt Q02750): 106%
TLK2 (Homo sapiens, UniProt Q86UE8): 87.8%
KDR (Homo sapiens, UniProt P35968): 92%

Block 2 — effect on: enzyme activity; mode: inhibitor; tested at: 1 µM; quantity: inhibition
Compound: CO[C@@H]1[C@H](N(C)C(=O)c2ccccc2)C[C@H]2O[C@]1(C)n1c3ccccc3c3c4c(c5c6ccccc6n2c5c31)C(=O)NC4
EGFR (Homo sapiens, UniProt P00533, L858R/T790M): 99%
TLK2 (Homo sapiens, UniProt Q86UE8): 0%
NEK11 (Homo sapiens, UniProt Q8NG66): 20%
CHUK (Homo sapiens, UniProt O15111): 0%
TNNI3K (Homo sapiens, UniProt Q59H18): 4%
TYRO3 (Homo sapiens, UniProt Q06418): 44%
PRKCQ (Homo sapiens, UniProt Q04759): 73%
FGFR3 (Homo sapiens, UniProt P22607, G697C): 7%
DDR1 (Homo sapiens, UniProt Q08345): 0%
TAOK3 (Homo sapiens, UniProt Q9H2K8): 40%
ERN1 (Homo sapiens, UniProt O75460): 14%

Block 3 — organism: Plasmodium berghei; mode: inhibitor; cells: Huh-7; strain: liver stage; tested at: 10 µM; time: 24 h; relative to: untreated control; quantity: infection rate
CC(=O)[C@@]1(O)CC[C@H]2[C@@H]3C[C@H](C)C4=CC(=O)C=C[C@]4(C)[C@@]3(F)[C@@H](O)C[C@@]21C: 107%
Cc1cc(NC(=O)C2=C(O)c3ccccc3S(=O)(=O)N2C)no1: 94.8%
CCN(CC)CCNC(=O)COc1ccc(OC)cc1: 117%
Oc1ccc(O)cc1: 57.7%
O=C(O)c1ccc(S(=O)(=O)N(Cl)Cl)cc1: 95.8%
O=S(=O)(O)CCS: 100%
COc1ccc2cc(CCC(C)=O)ccc2c1: 105%
CC(C)NCC(O)c1cc(O)cc(O)c1 (stereo not shown): 94.7%
C[C@@H]1O[C@@H]1P(=O)(O)O: 101%
CC(C)OC(=O)C(C)(C)Oc1ccc(C(=O)c2ccc(Cl)cc2)cc1: 105%
O=C(c1ccc(F)cc1)C1CCN(CCn2c(=O)[nH]c3ccccc3c2=O)CC1: 58.3%
NC(=O)OCC(COC(N)=O)c1ccccc1: 107%
CCOC(=O)c1ccc(O)cc1: 87.4%

Block 4 — effect on: cell-free assay; method: competition with immobilised ligand; tested at: 1 µM; quantity: remaining binding
SMILES: CCS(=O)(=O)c1cc2cc(C[C@](O)(CC(C)(C)c3ccc(F)cc3C(N)=O)C(F)(F)F)[nH]c2cn1
ZAP70 (Homo sapiens, UniProt P43403): 71%
WNK4 (Homo sapiens, UniProt Q96J92): 100%
MET (Homo sapiens, UniProt P08581, M1250T): 100%
TEC (Homo sapiens, UniProt P42680): 90%
CASK (Homo sapiens, UniProt O14936): 100%
PIK3CG (Homo sapiens, UniProt P48736): 80%
SRPK1 (Homo sapiens, UniProt Q96SB4): 83%
NEK9 (Homo sapiens, UniProt Q8TD19): 99%
TBK1 (Homo sapiens, UniProt Q9UHD2): 93%
COQ8B (Homo sapiens, UniProt Q96D53): 78%

Repeated from above (block 3):
CCN(CC)CCNC(=O)COc1ccc(OC)cc1: 117%
Oc1ccc(O)cc1: 57.7%
O=C(O)c1ccc(S(=O)(=O)N(Cl)Cl)cc1: 95.8%
O=S(=O)(O)CCS: 100%
COc1ccc2cc(CCC(C)=O)ccc2c1: 105%
CC(C)NCC(O)c1cc(O)cc(O)c1 (stereo not shown): 94.7%
C[C@@H]1O[C@@H]1P(=O)(O)O: 101%
CC(C)OC(=O)C(C)(C)Oc1ccc(C(=O)c2ccc(Cl)cc2)cc1: 105%
